{"data": "Published values of several laboratories", "note": "Every numbered part comes from another study and shows a few of its results, in no order."}
{"data": "Series 1", "target": "Sal-like protein 4, full length isoform A (SALL4, Homo sapiens, UniProt Q9UJQ4, residues 1-1053)", "technique": "universal PBM", "molecule type": "double-stranded DNA, one strand shown", "sample": "in vitro", "concentration": "600 nM", "notes": "8-mer, flanks averaged, mean of replicates", "reading": "higher = stronger binding", "chain of UniProt Q9UJQ4 (whole entry, looked up)": "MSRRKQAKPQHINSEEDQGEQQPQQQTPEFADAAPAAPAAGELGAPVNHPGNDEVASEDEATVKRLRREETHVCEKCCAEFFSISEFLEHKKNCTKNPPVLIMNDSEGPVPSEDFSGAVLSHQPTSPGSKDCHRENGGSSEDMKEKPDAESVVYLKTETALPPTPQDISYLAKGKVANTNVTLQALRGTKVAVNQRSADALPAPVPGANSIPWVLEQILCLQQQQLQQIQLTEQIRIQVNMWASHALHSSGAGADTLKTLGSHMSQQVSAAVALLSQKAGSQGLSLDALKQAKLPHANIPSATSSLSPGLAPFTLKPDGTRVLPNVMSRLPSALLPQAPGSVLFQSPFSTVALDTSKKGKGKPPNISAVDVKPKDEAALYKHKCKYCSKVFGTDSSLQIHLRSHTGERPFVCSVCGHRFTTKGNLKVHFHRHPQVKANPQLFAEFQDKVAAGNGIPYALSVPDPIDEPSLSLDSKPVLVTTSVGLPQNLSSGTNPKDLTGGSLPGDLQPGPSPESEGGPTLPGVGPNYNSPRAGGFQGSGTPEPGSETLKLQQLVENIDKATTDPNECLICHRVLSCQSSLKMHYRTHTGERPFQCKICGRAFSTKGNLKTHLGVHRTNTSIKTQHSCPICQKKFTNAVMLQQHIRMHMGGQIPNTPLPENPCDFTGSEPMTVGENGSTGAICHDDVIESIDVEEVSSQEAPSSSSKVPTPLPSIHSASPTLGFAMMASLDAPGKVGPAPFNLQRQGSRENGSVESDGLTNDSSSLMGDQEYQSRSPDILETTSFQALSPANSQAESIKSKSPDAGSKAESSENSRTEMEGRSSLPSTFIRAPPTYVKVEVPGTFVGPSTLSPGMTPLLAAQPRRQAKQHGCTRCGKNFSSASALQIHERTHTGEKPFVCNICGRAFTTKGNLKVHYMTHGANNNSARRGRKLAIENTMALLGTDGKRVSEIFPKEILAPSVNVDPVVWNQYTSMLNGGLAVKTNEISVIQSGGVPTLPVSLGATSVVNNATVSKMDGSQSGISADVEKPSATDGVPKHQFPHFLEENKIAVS"}
{"Oligonucleotide": "ACGGTCGG", "E-score": -0.314}
{"Oligonucleotide": "TAAGAGCA", "E-score": 0.00775}
{"Oligonucleotide": "CACGGCGC", "E-score": -0.209}
{"Oligonucleotide": "TATCACCA", "E-score": 0.146}
{"Oligonucleotide": "ACCATCCG", "E-score": -0.176}
{"Oligonucleotide": "AAGAAGCT", "E-score": 0.125}
{"Oligonucleotide": "CATAAGGA", "E-score": 0.102}
{"data": "Series 2", "target": "Centromere-binding protein 1, full length, His-tagged (CBF1, Saccharomyces cerevisiae, UniProt P17106, residues 1-351)", "technique": "competition protein-binding microarray", "molecule type": "double-stranded DNA, one strand shown", "sample": "in vitro", "concentration": "2 µM", "notes": "whole 60-bp probe, lowest competitor level", "added": "Pho4 competitor, 0.05 µM", "reading": "higher = stronger binding", "all sequences stand within": "… GTCTTGATTCGCTTGACGCTGCTG", "chain of UniProt P17106 (whole entry, looked up)": "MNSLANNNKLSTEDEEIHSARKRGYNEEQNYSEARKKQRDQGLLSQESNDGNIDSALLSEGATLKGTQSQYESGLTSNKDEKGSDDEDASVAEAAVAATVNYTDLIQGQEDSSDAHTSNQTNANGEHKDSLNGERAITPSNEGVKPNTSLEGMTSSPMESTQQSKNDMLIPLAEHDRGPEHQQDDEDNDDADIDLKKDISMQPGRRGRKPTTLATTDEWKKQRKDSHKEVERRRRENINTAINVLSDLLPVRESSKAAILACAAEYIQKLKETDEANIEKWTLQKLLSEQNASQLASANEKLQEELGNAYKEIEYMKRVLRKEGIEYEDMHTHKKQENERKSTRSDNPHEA"}
{"Oligonucleotide": "AAGACCTATTTCTCAGACGTGCTAATCTCCCGTCAA", "fluorescence intensity [a.u.]": 66.7}
{"Oligonucleotide": "TTTTCTGACCGCCAGTTCGTGCGATTAGTTCTGTGG", "fluorescence intensity [a.u.]": 55.7}
{"Oligonucleotide": "CAAAGAAGTAACCTCCACGTTAAGTGCTGAAATAAC", "fluorescence intensity [a.u.]": 71.7}
{"Oligonucleotide": "CCGGTTAACGTTGTGGACGTGTTGGCGATGCCTCAA", "fluorescence intensity [a.u.]": 58.4}
{"Oligonucleotide": "ATAGACAATACTTTTCACATGCCGCATTTAGCCGCC", "fluorescence intensity [a.u.]": 141}
{"data": "Series 3", "target": "Fragile X messenger ribonucleoprotein 1, C-terminal low-complexity region (Fmr1, Mus musculus, UniProt P35922)", "technique": "RNA Bind-n-Seq", "molecule type": "RNA", "sample": "in vitro", "concentration": "200 nM", "notes": "whole 134-nt RNA, ends assumed", "added": "150 mM LiCl", "relative to": "input library", "reading": "higher = stronger binding", "library": "7-deaza-guanosine replaces G"}
{"Oligonucleotide": "GGGAGUUCUACAGUCCGACGAUCGCAGGAAGUAAAAACAAAUGGAAAUGCUUCGGAUAGUGGCAGGGGUGGGGGUUGCUAAGGAAAGGGUGGGAUGGGAGUGGUUAAAGAGUUUGGAAUUCUCGGGUGUCAAGG", "log2 enrichment": 1.76}
{"Oligonucleotide": "GGGAGUUCUACAGUCCGACGAUCAGUCCUGUGCUACACAUCGUAUGUACCGAAUCGGAAAAAGGAAAAAGGGAAAAAGGGGAAAGUAUUAUGUUACGCCGUUCGGAUCUGCACUGGAAUUCUCGGGUGUCAAGG", "log2 enrichment": -0.847}
{"Oligonucleotide": "GGGAGUUCUACAGUCCGACGAUCUGGGAGGUGGAUUUUGUUUAUUUUUUUAGCUCAUUUCCAGGGGUGAGAAUUUUUUUUUAAUAUGUGUCAUGAAUAAAGUUGUUUUUGAAAUGGAAUUCUCGGGUGUCAAGG", "log2 enrichment": 0.461}
{"Oligonucleotide": "GGGAGUUCUACAGUCCGACGAUCGUCCUGUGCUACACAUCGUAUGUACCGAAUCGGCCCCCGGGCCCCCGGGGCCCCCGGGAAAGUAUUAUGUUACGCCGUUCGGAUCUGCACUGGAAUUCUCGGGUGUCAAGG", "log2 enrichment": -2.82}
{"data": "Mixed results"}
{"Molecule": "PhoQ, residues 284 288 289 292 302 303 ALSMDL", "target": "PhoP, residues 12 14 15 18 19 IQFRS (Escherichia coli, UniProt P23836)", "assay": "Sort-seq, refers to: YFP reporter", "system": "E. coli", "conditions": "PhoQ-PhoP variant library, added: 10 µM Mg2+", "how to read": "relative to: high Mg2+ state, higher = stronger signaling", "quantity": "fold induction", "value": 6.75}
